{"data": "Measurements from different studies", "note": "Every numbered part comes from another study and shows a few of its results, in no order. Substitutions count along the parent as printed."}
{"data": "Sample 1", "target": "Interferon regulatory factor 5, full length, phosphomimetic (IRF5, Homo sapiens, UniProt Q13568-2, residues 1-514, S451D/S453D/S456D/S462D)", "method": "protein-binding microarray", "molecule type": "double-stranded DNA, one strand shown", "matrix": "in vitro", "concentration": "940 nM top", "setting": "60-bp whole probe", "with": "salmon DNA 0.4 mg/ml", "reference": "random background probes", "reading": "higher = stronger binding", "all sequences stand within": "GCCTAGCAC … GTCTTGATTCGCTTGACGCTGCTG"}
{"Sequence": "TTAGGTATCGGTATCGGGTAGTGCTAG", "fitted relative affinity [z-score]": 9.64}
{"Sequence": "GATGATATCAGTATCGAGACGTGCTAG", "fitted relative affinity [z-score]": 1.87}
{"Sequence": "GACGATTTTAGACTGGAGACGTGCTAG", "fitted relative affinity [z-score]": -0.301}
{"Sequence": "TTAGGTTTCCTACTGTTTTAGTGCTAG", "fitted relative affinity [z-score]": 0.816}
{"Sequence": "GACGGACTGGACTATCGGGGCGTGCTA", "fitted relative affinity [z-score]": -0.724}
{"Sequence": "TTAGGTTTCGCCACTGGGTTAGTGCTA", "fitted relative affinity [z-score]": 7.07}
{"Sequence": "TCACTTCTCTAACCTCTCACTGTGCTA", "fitted relative affinity [z-score]": 1.67}
{"Sequence": "TTAGATTACAGTCTCGATTAGTGCTAG", "fitted relative affinity [z-score]": 2.47}
{"Sequence": "TACGGTTCCGGTTTCGGGACGTGCTAG", "fitted relative affinity [z-score]": 5.35}
{"Sequence": "GACGGTTTCATACTGCTGACGTGCTAG", "fitted relative affinity [z-score]": 3.39}
{"Sequence": "TTAGGTTCCCTTTTCCTTTTGTGCTAG", "fitted relative affinity [z-score]": 0.555}
{"Sequence": "TCAAGGCCAGGGTTTCTGTTGTGCTAG", "fitted relative affinity [z-score]": 0.58}
{"Sequence": "TCCACTTTGACTTAAGAGGCGTGCTAG", "fitted relative affinity [z-score]": -0.355}
{"Sequence": "TTAGGTAACGGGTATCGGTTAGTGCTA", "fitted relative affinity [z-score]": 2.89}
{"Sequence": "TATGGTTTTTTTTTAATTGAGTGCTAG", "fitted relative affinity [z-score]": 1.39}
{"Sequence": "TTAGGTCTCCTTTTTCTTTAGTGCTAG", "fitted relative affinity [z-score]": 0.875}
{"Sequence": "TTACATTTCGGGTTTCGATTAGTGCTA", "fitted relative affinity [z-score]": 6.57}
{"Sequence": "GACGGACTTCTTATCCTGACGTGCTAG", "fitted relative affinity [z-score]": 0.125}
{"Sequence": "GACGGTATCGGTTATCGGGACGTGCTA", "fitted relative affinity [z-score]": 8.59}
{"data": "Sample 2", "target": "CCNB2, cyclin fold, Cln2 fusion (human)", "method": "yeast growth competition, sequencing", "matrix": "yeast", "setting": "weak parent motif", "reference": "not given", "reading": "higher = stronger binding", "starting sequence": "RBL2 docking peptide (human); STTRRRLFVENDS"}
{"Variant": "D12E", "normalised enrichment score": -0.033}
{"Variant": "R6H", "normalised enrichment score": 0.152}
{"Variant": "E10P", "normalised enrichment score": 0.465}
{"Variant": "R5A L7A", "normalised enrichment score": 0.0992}
{"Variant": "R5F", "normalised enrichment score": -0.26}
{"Variant": "N11S", "normalised enrichment score": 0.421}
{"Variant": "R5Q", "normalised enrichment score": 0.755}
{"Variant": "N11K", "normalised enrichment score": 0.75}
{"Variant": "V9E", "normalised enrichment score": 0.209}
{"Variant": "N11I", "normalised enrichment score": 0.274}
{"Variant": "R6P", "normalised enrichment score": -0.366}
{"Variant": "E10V", "normalised enrichment score": 0.757}
{"Variant": "E10R", "normalised enrichment score": 0.0477}
{"Variant": "D12I", "normalised enrichment score": 0.751}
{"data": "Sample 3", "target": "ABI1, truncated, D143A, DHFR fusion (Arabidopsis thaliana)", "method": "DHFR PCA, deep sequencing", "matrix": "yeast", "setting": "methotrexate growth selection, single substitutions", "with": "(+)-ABA 0.11 µM", "reference": "wild-type fitted maximum", "reading": "higher = stronger binding", "starting sequence": "PYL1, truncated, DHFR fusion (Arabidopsis thaliana); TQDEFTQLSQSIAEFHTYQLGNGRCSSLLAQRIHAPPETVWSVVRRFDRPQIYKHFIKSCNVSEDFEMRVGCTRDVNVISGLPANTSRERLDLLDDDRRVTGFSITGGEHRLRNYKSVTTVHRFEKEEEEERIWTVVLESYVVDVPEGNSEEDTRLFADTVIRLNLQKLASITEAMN"}
{"Variant": "T17S", "relative binding score [%]": 17.2}
{"Variant": "R69N", "relative binding score [%]": 13}
{"Variant": "T135F", "relative binding score [%]": -7.19}
{"Variant": "F15S", "relative binding score [%]": 4.52}
{"Variant": "V142N", "relative binding score [%]": -0.701}
{"Variant": "M68Y", "relative binding score [%]": 0.034}
{"Variant": "D92M", "relative binding score [%]": -3.51}
{"Variant": "A13D", "relative binding score [%]": 36.5}
{"Variant": "T154R", "relative binding score [%]": 0.13}
{"Variant": "E129H", "relative binding score [%]": 28.2}
{"Variant": "E139D", "relative binding score [%]": -7.41}
{"Variant": "P146D", "relative binding score [%]": -0.504}
{"Variant": "E38T", "relative binding score [%]": 3.72}
{"Variant": "K58D", "relative binding score [%]": 0.446}
{"data": "Further values, each from its own experiment"}
{"Molecule": "PhoQ, residues 284 288 289 292 302 303 TSTLRA", "target": "PhoP, residues 12 14 15 18 19 LWHCS (Escherichia coli, UniProt P23836)", "assay": "Sort-seq, item: YFP reporter", "test system": "E. coli", "conditions": "PhoQ-PhoP variant library, with: 10 µM Mg2+", "how to read": "reference: high Mg2+ state, higher = stronger signaling", "quantity": "fold induction", "value": 1.01}
{"note": "Some of these lines once more (sample 1):"}
{"Sequence": "GACGGACTGGACTATCGGGGCGTGCTA", "fitted relative affinity [z-score]": -0.724}
{"Sequence": "TTACATTTCGGGTTTCGATTAGTGCTA", "fitted relative affinity [z-score]": 6.57}
{"Sequence": "TTAGGTAACGGGTATCGGTTAGTGCTA", "fitted relative affinity [z-score]": 2.89}
{"Sequence": "GATGATATCAGTATCGAGACGTGCTAG", "fitted relative affinity [z-score]": 1.87}
